# Results gathered from unrelated publications.
# Numbered parts are unrelated; each lists some results of a single study.
# UniProt Q92630, sequence (whole entry, looked up): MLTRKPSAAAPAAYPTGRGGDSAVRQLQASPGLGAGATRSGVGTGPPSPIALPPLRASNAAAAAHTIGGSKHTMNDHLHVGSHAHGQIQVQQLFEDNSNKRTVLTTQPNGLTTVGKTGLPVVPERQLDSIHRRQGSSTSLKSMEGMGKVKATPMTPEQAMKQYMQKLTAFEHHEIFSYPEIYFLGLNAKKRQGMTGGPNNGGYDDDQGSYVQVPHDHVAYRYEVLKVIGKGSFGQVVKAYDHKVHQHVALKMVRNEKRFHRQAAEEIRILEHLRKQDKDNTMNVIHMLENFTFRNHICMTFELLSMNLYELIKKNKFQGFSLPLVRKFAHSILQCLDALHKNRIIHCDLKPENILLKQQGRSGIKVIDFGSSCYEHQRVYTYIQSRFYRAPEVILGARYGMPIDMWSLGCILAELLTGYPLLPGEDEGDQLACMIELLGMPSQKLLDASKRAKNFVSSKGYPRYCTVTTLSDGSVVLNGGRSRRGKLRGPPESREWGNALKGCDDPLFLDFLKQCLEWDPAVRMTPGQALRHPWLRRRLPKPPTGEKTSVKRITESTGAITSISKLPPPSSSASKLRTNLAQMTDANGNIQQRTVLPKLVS
# UniProt O00444, sequence (whole entry, looked up): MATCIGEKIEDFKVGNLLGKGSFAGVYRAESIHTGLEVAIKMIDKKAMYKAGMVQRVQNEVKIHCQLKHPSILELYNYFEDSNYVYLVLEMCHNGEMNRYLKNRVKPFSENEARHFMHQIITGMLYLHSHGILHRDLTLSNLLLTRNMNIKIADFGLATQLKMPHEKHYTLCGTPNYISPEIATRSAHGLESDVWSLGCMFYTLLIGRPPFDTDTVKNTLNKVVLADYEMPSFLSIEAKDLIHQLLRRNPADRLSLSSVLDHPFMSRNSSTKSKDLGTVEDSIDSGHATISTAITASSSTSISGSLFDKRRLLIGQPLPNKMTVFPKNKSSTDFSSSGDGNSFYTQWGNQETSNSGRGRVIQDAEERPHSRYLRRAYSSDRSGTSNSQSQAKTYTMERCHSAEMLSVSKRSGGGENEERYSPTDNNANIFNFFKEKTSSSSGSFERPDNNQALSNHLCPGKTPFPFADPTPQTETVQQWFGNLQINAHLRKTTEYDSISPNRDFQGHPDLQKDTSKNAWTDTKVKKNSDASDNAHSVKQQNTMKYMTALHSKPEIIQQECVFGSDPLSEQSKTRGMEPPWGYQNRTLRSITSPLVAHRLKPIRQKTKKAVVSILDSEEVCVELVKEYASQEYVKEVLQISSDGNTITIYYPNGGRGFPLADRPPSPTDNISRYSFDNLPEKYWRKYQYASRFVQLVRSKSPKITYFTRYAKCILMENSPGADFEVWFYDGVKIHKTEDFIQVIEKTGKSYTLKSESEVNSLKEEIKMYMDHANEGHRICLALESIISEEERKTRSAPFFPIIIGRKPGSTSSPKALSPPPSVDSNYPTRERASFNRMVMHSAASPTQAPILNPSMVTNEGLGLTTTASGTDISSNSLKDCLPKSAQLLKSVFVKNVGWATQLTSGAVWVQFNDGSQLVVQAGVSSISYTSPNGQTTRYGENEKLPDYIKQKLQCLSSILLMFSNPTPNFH
# UniProt O60331, sequence (whole entry, looked up): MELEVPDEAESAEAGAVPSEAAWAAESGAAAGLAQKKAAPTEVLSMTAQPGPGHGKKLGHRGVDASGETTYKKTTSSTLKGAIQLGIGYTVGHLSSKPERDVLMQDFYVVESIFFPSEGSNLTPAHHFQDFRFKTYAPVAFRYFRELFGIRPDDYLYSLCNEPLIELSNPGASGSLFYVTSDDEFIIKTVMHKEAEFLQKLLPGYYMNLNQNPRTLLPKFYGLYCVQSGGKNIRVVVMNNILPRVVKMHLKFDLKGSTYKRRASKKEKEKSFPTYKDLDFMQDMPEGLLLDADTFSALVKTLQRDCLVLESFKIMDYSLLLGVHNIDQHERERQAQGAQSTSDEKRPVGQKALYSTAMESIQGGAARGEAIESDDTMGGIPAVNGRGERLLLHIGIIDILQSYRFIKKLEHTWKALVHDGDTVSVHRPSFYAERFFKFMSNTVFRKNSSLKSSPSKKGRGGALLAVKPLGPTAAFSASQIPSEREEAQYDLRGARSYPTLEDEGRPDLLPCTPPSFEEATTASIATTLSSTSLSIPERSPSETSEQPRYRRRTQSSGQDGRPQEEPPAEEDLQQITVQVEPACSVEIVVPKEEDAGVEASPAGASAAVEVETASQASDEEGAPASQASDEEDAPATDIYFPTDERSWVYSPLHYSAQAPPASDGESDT
# UniProt Q16816, sequence (whole entry, looked up): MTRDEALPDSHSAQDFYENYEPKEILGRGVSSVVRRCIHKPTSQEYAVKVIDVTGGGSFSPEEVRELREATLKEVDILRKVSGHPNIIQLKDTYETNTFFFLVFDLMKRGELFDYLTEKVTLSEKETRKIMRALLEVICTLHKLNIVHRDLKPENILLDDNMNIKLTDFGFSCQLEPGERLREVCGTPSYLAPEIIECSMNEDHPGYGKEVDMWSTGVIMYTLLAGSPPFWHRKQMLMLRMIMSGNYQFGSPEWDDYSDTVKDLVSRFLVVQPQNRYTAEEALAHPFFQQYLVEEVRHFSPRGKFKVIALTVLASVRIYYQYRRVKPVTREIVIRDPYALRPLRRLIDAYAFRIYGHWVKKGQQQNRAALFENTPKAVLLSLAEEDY
# UniProt O75582, sequence (whole entry, looked up): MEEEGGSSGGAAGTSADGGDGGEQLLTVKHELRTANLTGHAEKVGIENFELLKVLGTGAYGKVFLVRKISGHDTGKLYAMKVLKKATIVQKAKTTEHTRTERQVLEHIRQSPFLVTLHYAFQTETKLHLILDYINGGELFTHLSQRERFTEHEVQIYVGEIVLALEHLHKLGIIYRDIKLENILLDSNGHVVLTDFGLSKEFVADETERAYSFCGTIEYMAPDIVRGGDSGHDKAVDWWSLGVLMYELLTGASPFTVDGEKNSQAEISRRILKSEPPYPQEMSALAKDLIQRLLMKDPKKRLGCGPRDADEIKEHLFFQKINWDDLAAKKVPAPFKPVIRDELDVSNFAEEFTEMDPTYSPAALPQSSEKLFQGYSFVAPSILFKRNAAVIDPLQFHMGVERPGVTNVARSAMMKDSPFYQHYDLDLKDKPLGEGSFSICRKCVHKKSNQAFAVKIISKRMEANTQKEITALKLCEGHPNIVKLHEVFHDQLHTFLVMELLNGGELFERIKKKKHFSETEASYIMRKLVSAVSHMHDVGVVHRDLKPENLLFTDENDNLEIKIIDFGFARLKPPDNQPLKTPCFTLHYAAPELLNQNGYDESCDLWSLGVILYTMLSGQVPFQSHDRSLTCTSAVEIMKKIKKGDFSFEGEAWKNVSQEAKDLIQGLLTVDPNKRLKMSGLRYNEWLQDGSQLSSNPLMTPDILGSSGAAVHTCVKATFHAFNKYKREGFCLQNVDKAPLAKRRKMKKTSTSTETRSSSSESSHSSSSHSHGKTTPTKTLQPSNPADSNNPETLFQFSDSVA
# UniProt Q32MK0, sequence (whole entry, looked up): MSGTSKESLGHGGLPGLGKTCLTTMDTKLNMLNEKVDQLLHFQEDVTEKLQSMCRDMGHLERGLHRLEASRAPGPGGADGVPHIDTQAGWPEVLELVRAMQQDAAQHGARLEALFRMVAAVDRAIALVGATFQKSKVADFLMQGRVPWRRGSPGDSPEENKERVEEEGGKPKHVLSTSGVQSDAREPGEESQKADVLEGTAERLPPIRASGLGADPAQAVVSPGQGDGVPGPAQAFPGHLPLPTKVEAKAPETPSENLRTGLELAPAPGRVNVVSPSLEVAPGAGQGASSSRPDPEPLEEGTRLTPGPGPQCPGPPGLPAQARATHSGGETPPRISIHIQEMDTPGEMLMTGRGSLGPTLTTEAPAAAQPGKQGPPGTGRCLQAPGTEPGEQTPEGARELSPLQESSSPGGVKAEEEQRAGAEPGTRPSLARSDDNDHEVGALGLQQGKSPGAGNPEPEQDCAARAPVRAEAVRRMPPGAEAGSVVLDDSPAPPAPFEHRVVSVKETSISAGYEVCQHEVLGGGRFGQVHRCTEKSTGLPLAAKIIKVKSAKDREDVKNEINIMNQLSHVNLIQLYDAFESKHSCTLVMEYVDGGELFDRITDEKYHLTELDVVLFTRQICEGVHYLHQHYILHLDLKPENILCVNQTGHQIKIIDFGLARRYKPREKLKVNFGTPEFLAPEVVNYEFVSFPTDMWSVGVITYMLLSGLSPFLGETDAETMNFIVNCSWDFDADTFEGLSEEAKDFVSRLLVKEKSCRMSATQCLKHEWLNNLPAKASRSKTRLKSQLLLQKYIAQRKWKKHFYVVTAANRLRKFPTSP
# UniProt O96017, sequence (whole entry, looked up): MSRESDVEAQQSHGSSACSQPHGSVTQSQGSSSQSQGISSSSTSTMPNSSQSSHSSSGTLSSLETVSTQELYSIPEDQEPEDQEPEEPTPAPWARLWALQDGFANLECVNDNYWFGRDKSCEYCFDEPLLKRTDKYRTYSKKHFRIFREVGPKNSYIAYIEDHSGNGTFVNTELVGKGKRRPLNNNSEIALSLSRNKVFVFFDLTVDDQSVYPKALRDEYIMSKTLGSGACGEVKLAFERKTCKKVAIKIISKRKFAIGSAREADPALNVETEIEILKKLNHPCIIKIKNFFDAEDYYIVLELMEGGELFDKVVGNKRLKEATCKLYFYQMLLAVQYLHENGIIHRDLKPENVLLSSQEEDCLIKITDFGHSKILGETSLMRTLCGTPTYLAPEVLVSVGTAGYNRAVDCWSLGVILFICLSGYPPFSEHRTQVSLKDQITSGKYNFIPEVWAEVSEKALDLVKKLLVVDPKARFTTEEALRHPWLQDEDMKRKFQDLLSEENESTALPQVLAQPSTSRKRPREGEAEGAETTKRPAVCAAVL

# Series 1
# Cell line: A-375
# Tested at: 100 µM
# Time: 18 h
SMILES,viability
Cc1onc(-c2ccccc2Cl)c1C(=O)N[C@@H]1C(=O)N2[C@@H]1SC(C)(C)[C@@H]2C(=O)O,92%
CC(/C=C1\SC(=S)N(CC(=O)O)C1=O)=C\c1ccccc1,108%
CC(=O)OCC(COC(C)=O)OC(C)=O,91.6%
COc1cc(Cc2cnc(N)nc2N)cc(OC)c1OC,107%
Nc1nc(Cl)nc2c1ncn2[C@H]1C[C@H](O)[C@@H](CO)O1,54.1%
COc1ccc(Cl)cc1C(=O)NCCc1ccc(S(=O)(=O)NC(=O)NC2CCCCC2)cc1,93%
O=C(c1ccccc1)c1ccc2n1CCC2C(=O)O (stereo not shown),48.1%
O=c1oc2ccccc2c(O)c1Cc1c(O)c2ccccc2oc1=O,47%
C[C@H]1C[C@H]2[C@@H]3CCC4=CC(=O)C=C[C@]4(C)[C@@]3(F)[C@@H](O)C[C@]2(C)[C@@]1(O)C(=O)CO,88.9%

# Series 2
# Compound: CC1=C(C#N)[C@@H](c2ccc3[nH]nc(C)c3c2)C(C#N)=C(c2ccc(Cl)cc2)N1
# Method: competition with immobilised ligand
# Tested at: 1 µM
target,read-out,remaining binding
"Myosin light chain kinase (MYLK3, Homo sapiens, UniProt Q32MK0)",cell-free assay,100%
"Mitogen-activated protein kinase kinase kinase 20 (MAP3K20, Homo sapiens, UniProt Q9NYL2)",cell-free assay,93.6%
"Dual specificity tyrosine-phosphorylation-regulated kinase 2 (DYRK2, Homo sapiens, UniProt Q92630)",cell-free assay,100%
"Phosphatidylinositol 4-phosphate 5-kinase type-1 gamma (PIP5K1C, Homo sapiens, UniProt O60331)",cell-free assay,99.5%
"Muscle, skeletal receptor tyrosine-protein kinase (MUSK, Homo sapiens, UniProt O15146)",cell-free assay,100%
"Protein kinase C iota type (PRKCI, Homo sapiens, UniProt P41743)",cell-free assay,99.4%
"Serine/threonine-protein kinase Nek2 (NEK2, Homo sapiens, UniProt P51955)",cell-free assay,100%
"Serine/threonine-protein kinase PLK4 (PLK4, Homo sapiens, UniProt O00444)",cell-free assay,100%
"Tyrosine-protein kinase ZAP-70 (ZAP70, Homo sapiens, UniProt P43403)",cell-free assay,85.4%
"Tyrosine-protein kinase ABL1, non-phosphorylated (ABL1, Homo sapiens, UniProt P00519, F317I)",binding,100%
"NT-3 growth factor receptor (NTRK3, Homo sapiens, UniProt Q16288)",cell-free assay,100%
"Tyrosine-protein kinase ABL1, phosphorylated (ABL1, Homo sapiens, UniProt P00519, H396P)",cell-free assay,100%
"Serine/threonine-protein kinase Chk2 (CHEK2, Homo sapiens, UniProt O96017)",cell-free assay,100%
"Mitogen-activated protein kinase 1 (MAPK1, Homo sapiens, UniProt P28482)",cell-free assay,100%
"Calcium/calmodulin-dependent protein kinase type 1D (CAMK1D, Homo sapiens, UniProt Q8IU85)",cell-free assay,100%

# Series 3
# Host: mouse
# Medium: microsomes or S9
# Tested at: 2 µM
# Time: 0.5 h
SMILES,remaining compound [%]
O=S(=O)(NCCCOC1CCCCC1)c1ccc(Cl)c(-c2nnn[nH]2)c1,48.9
Cc1cc(OC2CN(S(=O)(=O)N(C)C)C2)cc(=O)n1C,60
Cc1ccccc1-c1nc2ccccc2cc1CN(C(=O)CCNC(=O)OC(C)(C)C)c1ccnc(S(C)(=O)=O)n1,10.6
O=C(NCC1=COCCO1)NC1CCc2c1ccc(Cl)c2Cl (stereo not shown),10.9
CC(C)S(=O)(=O)c1ccccc1C(=O)N1CC(C)(C)c2c(Cl)cccc21,5.28
O=C(Cc1cccs1)NC1(C(=O)NC2CCCCC2)CCCCC1,0.227
COC(=O)/C(=C/C(C)=C/c1cc(C(=O)OC)nc(O)n1)OC,0.429
CCN1C(=O)C(C)(C)c2cc(S(=O)(=O)Nc3cnn(CC)c3)ccc21,39.5

# Series 4
# Structure (SMILES): O=C(c1ccccc1)c1ccc(N2CCOCC2)cc1O
# Read-out: enzyme activity
# Action: inhibitor
# Tested at: 0.5 µM
# Relative to: control
target,remaining activity [%]
"Ephrin type-A receptor 4 (EPHA4, Homo sapiens, UniProt P54764)",103
"3-phosphoinositide-dependent protein kinase 1 (PDPK1, Homo sapiens, UniProt O15530)",101
"Homeodomain-interacting protein kinase 2 (HIPK2, Homo sapiens, UniProt Q9H2X6)",105
"MAP kinase-activated protein kinase 3 (MAPKAPK3, Homo sapiens, UniProt Q16644)",106
"Ribosomal protein S6 kinase alpha-5 (RPS6KA5, Homo sapiens, UniProt O75582)",102
"Tyrosine-protein kinase Srms (SRMS, Homo sapiens, UniProt Q9H3Y6)",93.9
"Mitogen-activated protein kinase kinase kinase kinase 4 (MAP4K4, Homo sapiens, UniProt O95819)",86.4
"Serine/threonine-protein kinase 17A (STK17A, Homo sapiens, UniProt Q9UEE5)",97.9
"Tyrosine-protein kinase receptor UFO (AXL, Homo sapiens, UniProt P30530)",95.1
"Tyrosine-protein kinase Blk (BLK, Homo sapiens, UniProt P51451)",102
"Homeodomain-interacting protein kinase 4 (HIPK4, Homo sapiens, UniProt Q8NE63)",99.5
"Ribosomal protein S6 kinase alpha-6 (RPS6KA6, Homo sapiens, UniProt Q9UK32)",101
"Phosphorylase b kinase gamma catalytic chain, skeletal muscle/heart isoform (PHKG1, Homo sapiens, UniProt Q16816)",97.4
"Serine/threonine-protein kinase WNK3 (WNK3, Homo sapiens, UniProt Q9BYP7)",104
